Assay results from different studies.
Numbered parts are unrelated; each lists some results of a single study. “And” joins repeats or separate records; there may be more than shown.
UniProt P9WI81, sequence (whole entry, looked up): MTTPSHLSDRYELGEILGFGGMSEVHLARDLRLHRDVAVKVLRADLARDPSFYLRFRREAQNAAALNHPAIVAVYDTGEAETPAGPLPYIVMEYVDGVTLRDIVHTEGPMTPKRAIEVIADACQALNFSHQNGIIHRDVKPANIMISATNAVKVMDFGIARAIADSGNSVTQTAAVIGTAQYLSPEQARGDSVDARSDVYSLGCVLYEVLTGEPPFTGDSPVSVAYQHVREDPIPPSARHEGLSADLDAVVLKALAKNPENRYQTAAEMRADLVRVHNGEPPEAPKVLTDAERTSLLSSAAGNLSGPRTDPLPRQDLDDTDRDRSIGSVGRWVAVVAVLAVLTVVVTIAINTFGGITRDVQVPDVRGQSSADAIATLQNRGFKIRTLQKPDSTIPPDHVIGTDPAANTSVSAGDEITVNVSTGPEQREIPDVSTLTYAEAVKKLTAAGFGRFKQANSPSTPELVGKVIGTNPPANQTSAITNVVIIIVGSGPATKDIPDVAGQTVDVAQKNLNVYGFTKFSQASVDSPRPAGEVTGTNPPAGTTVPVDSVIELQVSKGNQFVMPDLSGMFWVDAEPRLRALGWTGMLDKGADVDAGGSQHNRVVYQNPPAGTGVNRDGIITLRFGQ
UniProt P28223, sequence (whole entry, looked up): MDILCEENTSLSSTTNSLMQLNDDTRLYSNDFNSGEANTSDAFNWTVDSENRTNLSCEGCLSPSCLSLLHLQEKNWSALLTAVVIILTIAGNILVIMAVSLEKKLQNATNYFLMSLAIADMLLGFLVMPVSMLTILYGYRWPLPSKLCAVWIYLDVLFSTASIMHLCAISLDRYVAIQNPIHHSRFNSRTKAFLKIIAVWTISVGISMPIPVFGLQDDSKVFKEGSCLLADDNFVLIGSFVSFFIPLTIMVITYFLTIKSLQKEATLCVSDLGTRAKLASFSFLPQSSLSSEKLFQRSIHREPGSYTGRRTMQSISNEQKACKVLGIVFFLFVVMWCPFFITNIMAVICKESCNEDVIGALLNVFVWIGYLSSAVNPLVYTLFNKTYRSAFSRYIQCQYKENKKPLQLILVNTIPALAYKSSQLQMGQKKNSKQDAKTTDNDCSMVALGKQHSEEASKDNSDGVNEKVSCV
UniProt P24723, sequence (whole entry, looked up): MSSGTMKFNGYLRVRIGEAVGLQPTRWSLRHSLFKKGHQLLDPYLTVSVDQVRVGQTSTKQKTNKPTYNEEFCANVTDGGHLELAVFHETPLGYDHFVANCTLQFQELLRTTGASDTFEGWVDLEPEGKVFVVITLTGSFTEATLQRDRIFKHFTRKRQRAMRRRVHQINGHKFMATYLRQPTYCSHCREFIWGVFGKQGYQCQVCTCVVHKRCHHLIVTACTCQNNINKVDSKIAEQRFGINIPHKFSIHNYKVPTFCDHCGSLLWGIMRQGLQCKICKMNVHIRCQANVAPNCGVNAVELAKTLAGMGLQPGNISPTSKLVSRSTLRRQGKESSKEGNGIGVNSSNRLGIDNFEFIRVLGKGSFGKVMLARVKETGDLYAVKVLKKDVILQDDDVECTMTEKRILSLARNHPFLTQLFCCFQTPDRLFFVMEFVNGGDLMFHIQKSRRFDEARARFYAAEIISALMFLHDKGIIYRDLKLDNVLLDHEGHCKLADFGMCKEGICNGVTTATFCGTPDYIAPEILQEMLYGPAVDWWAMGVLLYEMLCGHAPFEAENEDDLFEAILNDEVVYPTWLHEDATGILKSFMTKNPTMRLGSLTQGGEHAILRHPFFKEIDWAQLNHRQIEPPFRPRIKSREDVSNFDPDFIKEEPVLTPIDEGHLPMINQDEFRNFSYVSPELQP

Set 1 — effect on: acetyl-histone H4 peptide binding; method: AlphaScreen displacement; tested at: 50 µM
Target: Bromodomain-containing protein 4, BD1 (BRD4, Homo sapiens, UniProt O60885)
Compound | inhibition
Nc1ncnc2c1ncn2[C@@H]1O[C@H](COP(=O)(O)CP(=O)(O)O)[C@@H](O)[C@H]1O | 2.65%
Cc1ccc(NC=C2C(=O)NC(=O)N(c3ccccc3)C2=O)cc1Cl | 20.8%
COC(=O)c1ccc(NC=C2C(=O)NC(=O)N(c3ccccc3)C2=O)cc1 | 7.8%

Set 2 — effect on: enzyme activity; action: inhibitor; method: radiometric; tested at: 0.5 µM
Target: Serine/threonine-protein kinase 33 (STK33, Homo sapiens, UniProt Q9BYT3)
UniProt Q9BYT3, sequence (whole entry, looked up): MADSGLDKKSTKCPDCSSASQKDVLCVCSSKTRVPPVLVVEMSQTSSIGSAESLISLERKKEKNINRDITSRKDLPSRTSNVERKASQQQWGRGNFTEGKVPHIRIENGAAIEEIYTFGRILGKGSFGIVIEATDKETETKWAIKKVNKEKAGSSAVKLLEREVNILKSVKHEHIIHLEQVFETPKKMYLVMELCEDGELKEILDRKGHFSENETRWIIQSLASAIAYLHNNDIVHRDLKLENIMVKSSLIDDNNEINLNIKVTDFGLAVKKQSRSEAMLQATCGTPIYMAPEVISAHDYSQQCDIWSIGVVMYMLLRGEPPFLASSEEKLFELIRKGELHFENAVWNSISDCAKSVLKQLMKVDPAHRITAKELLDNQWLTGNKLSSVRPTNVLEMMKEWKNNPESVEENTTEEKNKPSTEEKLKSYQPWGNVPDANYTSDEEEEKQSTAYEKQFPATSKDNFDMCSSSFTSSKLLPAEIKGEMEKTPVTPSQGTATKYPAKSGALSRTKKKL
Structure (SMILES) | remaining activity [%]
c1ccc2c(-c3ccncc3)c[nH]c2c1 | 97.3
Cc1cc(Nc2cc(N3CCN(C)CC3)nc(Sc3ccc(NC(=O)C4CC4)cc3)n2)[nH]n1 | 90.1
c1ccc(-c2n[nH]c3c2oc2ccccc23)cc1 | 96.5

Set 3 — action: agonist
Target: Beta-1 adrenergic receptor (ADRB1, Homo sapiens, UniProt P08588)
UniProt P08588, sequence (whole entry, looked up): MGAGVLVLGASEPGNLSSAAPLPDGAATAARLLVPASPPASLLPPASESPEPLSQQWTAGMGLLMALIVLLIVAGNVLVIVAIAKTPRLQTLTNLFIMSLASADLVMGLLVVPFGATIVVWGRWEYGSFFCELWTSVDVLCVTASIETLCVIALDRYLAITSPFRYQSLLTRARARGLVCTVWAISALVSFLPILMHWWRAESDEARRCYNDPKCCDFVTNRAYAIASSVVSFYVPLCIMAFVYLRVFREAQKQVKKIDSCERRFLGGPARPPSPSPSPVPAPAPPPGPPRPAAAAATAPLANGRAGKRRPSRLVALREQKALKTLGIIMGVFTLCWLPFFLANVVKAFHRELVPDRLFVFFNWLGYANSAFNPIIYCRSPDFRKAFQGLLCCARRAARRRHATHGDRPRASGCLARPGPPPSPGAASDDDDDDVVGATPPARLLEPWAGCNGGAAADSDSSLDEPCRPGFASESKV
Structure (SMILES) | EC50 [µM]
Clc1cccc(N2CCNCC2)c1Cl | ≥ 100
COc1ccc2[nH]cc(C3=CCN(CC(=O)N(C)Cc4ccccc4)CC3)c2c1 | ≥ 100
Clc1ccccc1COc1cccc(N2CCNCC2)c1 | ≥ 100

Set 4
Compound: CC[C@@H](C)c1nc2cc(Nc3ccnc4ccc(S(=O)(=O)C(C)C)cc34)ccc2s1.Cl
cell line | effect on | method | tested at | added | viability
L929 RIPK3 knockout |  |  | 100 µM |  | 36.6% and 35.7% and 42% and 54.5%
L929 RIPK3 knockout |  |  | 1.563 µM |  | 101% and 100% and 107% and 102% and 96%
L929 |  | CCK-8 | 25 µM | zVAD | 91.7% and 82.4% and 89.4% and 81.1%
HT-29 | necroptosis protection | CCK-8 | 2.5 µM | TNF-α SMAC mimetic zVAD | 66.6% and 69.5% and 56.7% and 82.8%
L929 RIPK3 knockout |  |  | 25 µM |  | 88.8% and 73.8% and 97.6% and 68.3%
L929 RIPK3 knockout |  |  | 25 µM | zVAD | 92.5% and 71.1% and 69.8% and 96.5%
HT-29 | necroptosis protection | CCK-8 | 10 µM | TNF-α SMAC mimetic zVAD | 85.8% and 100% and 89.7% and 85.2%
L929 |  | CCK-8 | 6.25 µM | zVAD | 105% and 107% and 101%
L929 |  | CCK-8 | 1.563 µM |  | 104% and 101% and 102%
L929 |  | CCK-8 | 6.25 µM |  | 104% and 111% and 108% and 105%
HT-29 | necroptosis protection | CCK-8 | 0.313 µM | TNF-α SMAC mimetic zVAD | 21.3% and 13.9% and 14.8% and 23.1% and 22.8%
L929 RIPK3 knockout |  |  | 12.5 µM |  | 94.5% and 114% and 113% and 105% and 97.3%

Mixed results
SMILES | target | effect on | method | tested at | measurement | result
CCCCN(CCCC)C(=O)CN1C[C@@H](c2cc(OC)c3c(c2)OCO3)[C@H](C(=O)O)[C@H]1CC(C)(C)CCC | Serine/threonine-protein kinase PknB (pknB, Mycobacterium tuberculosis, UniProt P9WI81) | cell-free assay | competition with immobilised ligand | 1 µM | remaining binding | 92.8%
O=C(NCc1ncc(C(F)(F)F)cc1Cl)c1ccc2c(c1)C1(CCS(=O)(=O)CC1)[C@@H](C1CC1)N2S(=O)(=O)c1ccc(F)cc1 | Protein kinase C eta type (PRKCH, Homo sapiens, UniProt P24723) | cell-free assay | competition with immobilised ligand | 1 µM | remaining binding | 96%
O=C([C@H]1C[C@H](O)CN1c1ccc(Cl)cc1)N1CC2COCC(C1)N2Cc1ccc(Cl)cc1 | 5-hydroxytryptamine receptor 2A (HTR2A, Homo sapiens, UniProt P28223) | binding | radioligand binding | 10 µM | inhibition | 7.31%

For quick reference, copied from above (set 1):
Compound | inhibition
Nc1ncnc2c1ncn2[C@@H]1O[C@H](COP(=O)(O)CP(=O)(O)O)[C@@H](O)[C@H]1O | 2.65%
Cc1ccc(NC=C2C(=O)NC(=O)N(c3ccccc3)C2=O)cc1Cl | 20.8%
COC(=O)c1ccc(NC=C2C(=O)NC(=O)N(c3ccccc3)C2=O)cc1 | 7.8%
